Results collected from several papers.
Parts stem from different laboratories: compare values within a part only. Substitutions count along the parent as printed.

Set 1
Target: Histone acetyltransferase KAT6A, winged helix 2, GST fusion (KAT6A, Homo sapiens, UniProt Q92794, residues 85-181)
Technique: protein binding microarray
Form: double-stranded DNA, one strand shown
Matrix: in vitro
Tested at: not given
Setting: 8-mer, flanks averaged, mean of 2 arrays, mostly near background
Baseline: not given
Reading: higher = stronger binding
Measurement: E-score
Target sequence (chain): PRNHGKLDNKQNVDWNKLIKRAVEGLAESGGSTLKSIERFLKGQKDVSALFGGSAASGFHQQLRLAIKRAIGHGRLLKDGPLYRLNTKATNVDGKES
CTTCTGTA: -0.0528
AAGTAAAA: 0.0581
CTCTAGAA: -0.139
ATCGGGAG: 0.118
GAGGAACA: 0.0744
CACTCGCA: -0.0125
AAGACAGT: -0.0159
CTACGATA: -0.112

Set 2
Target: UBE2U UBC core domain (UniProt Q5VVX9)
Technique: yeast two-hybrid
Matrix: yeast
Setting: mostly zero background
Baseline: not given
Reading: higher = stronger interaction
Measurement: lacZ reporter activity
B1: HLTF RING domain (UniProt Q14527); chain LILSSGSDEECAICLDSLTVPVITHCAHVFCKPCICQVIQNEQPHAKCPLCRNDIHEDNLLE
B2: VPS8 RING domain (UniProt Q8N3P4); chain TRGLNPKQDYCSICLQQYKRRQEMADEIIVFSCGHLYHSFCLQNKECTVEFEGQTRWTCYKCSSSNKVGKLSE
B3: TRIM41 RING domain (UniProt Q8WV44); chain PVQTLQEEAVCAICLDYFTDPVSIGCGHNFCRVCVTQLWGGEDEEDRDELDREEEEEDGEEE
Residues (chain): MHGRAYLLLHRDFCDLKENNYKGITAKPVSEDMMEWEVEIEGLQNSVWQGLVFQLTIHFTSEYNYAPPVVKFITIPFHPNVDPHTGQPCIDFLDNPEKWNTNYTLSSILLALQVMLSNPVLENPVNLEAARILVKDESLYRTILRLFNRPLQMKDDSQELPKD
B1 (HLTF RING domain): 14400
B2 (VPS8 RING domain): 0
ASEEEFQFLRCQQCQAEAKCPKLLPCLHTLCSGCLEASGMQCPICQAPWPLGADTP (PML RING domain (UniProt P29590)): 7900
B3 (TRIM41 RING domain): 0

Set 3
Target: RNA binding protein fox-1 homolog 2, RRM domain, GST-SBP tag (RBFOX2, Homo sapiens, UniProt O43251-10, residues 100-194)
Technique: RNA Bind-n-Seq
Form: RNA
Matrix: in vitro
Tested at: 365 nM
Setting: natural RNA segment, single round, ends assumed
Baseline: no-protein control
Reading: higher = stronger binding
Measurement: RBNS enrichment (R)
All sequences stand within: GGGAGUUCUACAGUCCGACGAUC … UGGAAUUCUCGGGUGCCAA
Target sequence (chain): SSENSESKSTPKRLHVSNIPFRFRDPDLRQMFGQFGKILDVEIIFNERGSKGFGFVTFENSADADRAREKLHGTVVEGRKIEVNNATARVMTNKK
GGCUCAAGGCUUCCCCAGCAAAGAUUAGGGAAAGAGACUUGACCCCAGGACUGUACUACGACUCUUAAGAGAACACUGCACAGCACUCAAAGUCCCCCACUGGACUGCUU: 0.503
UUGUGUAAUGGUUUUAUAUAUUAGCUUUGUAUAAGCUUUCAUGUAAGAGUCAUAUUUUUUGGCUUUGUAGAUAAAGACUUAAAUUUUUGUGCAAAAUAGUGGUGGUAAAG: 0.396
GUUUCCAAACCAGUGGUUUCUAUGUAGCUUUUCUAGUUCCUUGCUAUCUUCUCACCACUGGCUUGAGGUAGUGAUUUGGACUUUGCUCAUUAGAGAGCAUUAUCAGAGAU: 0.321
UGCGUGCCUGGACUCAGGAGCAUAGAAAAGACAAUUGUGGAUUGGGCCACACUGGCCUAGCCUGAACCUAGAUCCCUAACCCUGGGCUGGGUGAGGCUCACCUGCCCAGG: 0.301
CUUCGUGGUAUCUUCACAGAUCACAAGUAAAUGUGAAUCUGAAAGAUAGCAUCCACACAAAAUUCUAUAAUCGGAAAGAUCUUUGUAACUAAUCUGAAAUACACAUAAAU: 0.64
AGUUACCUUCUGGGCAAAGGCUGCCUUCCCACCCUUCCUUUCACGGCACCACACUACAUCCCCAUGCCCCUGUGGAAGUCUGUUACUGCAGCACUGUGCCUGCCAGAGUU: 0.385
AUGUGAACAGUGAGGAUCAGAGGUUUUAUCAGAACACAUUCUUUUUUUCUACCAACUCUCCAGAGCGUGAGUAUAGGAGUGCCAUGAGCUUUUUAGUCAGCAGUUUUGUA: 0.639

Set 4
Target: ABI1, truncated, D143A, DHFR fusion (Arabidopsis thaliana)
Technique: DHFR PCA, deep sequencing
Matrix: yeast
Setting: methotrexate growth selection, single substitutions
Together with: (+)-ABA 0.39 µM
Baseline: wild-type fitted maximum
Reading: higher = stronger binding
Measurement: relative binding score
Parent: PYL1, truncated, DHFR fusion (Arabidopsis thaliana); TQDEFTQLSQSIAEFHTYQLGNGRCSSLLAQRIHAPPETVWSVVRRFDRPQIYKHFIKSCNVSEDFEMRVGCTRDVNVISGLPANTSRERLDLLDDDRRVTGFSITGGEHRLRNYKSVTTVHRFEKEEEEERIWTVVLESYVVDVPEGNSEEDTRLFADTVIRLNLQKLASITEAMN
E174I: -9.51%
R69G: 25.5%
L164D: 25.9%
S140P: 7.57%
I133T: 55.5%
L28A: 1.48%
A158E: -5.59%
Q51M: 1.84%
H34W: 24.6%
V137Q: -10.1%
T173S: 29.9%
S63D: 49.2%
S9W: 26.3%
D96N: 1.93%

Mixed results
SUCLG1 (Homo sapiens, UniProt P53597) — cross-linked residues (SUCLG2 (Homo sapiens, UniProt Q96I99); cross-linking MS; cell fractions; together with: DHSO): E77 to E400

Repeated from above (set 1):
CTCTAGAA: -0.139
ATCGGGAG: 0.118
GAGGAACA: 0.0744
CACTCGCA: -0.0125
AAGACAGT: -0.0159
